Measurements gathered from unrelated publications.
Every numbered part comes from another study and shows a few of its results, in no order. Changes are numbered by the printed parent chain.

Series 1
Target: RING finger protein unkempt homolog, zinc fingers 1-6, GST-SBP tag (UNK, Homo sapiens, UniProt Q9C0B0, residues 30-357)
Sequence of UniProt Q9C0B0 (30-357, looked up): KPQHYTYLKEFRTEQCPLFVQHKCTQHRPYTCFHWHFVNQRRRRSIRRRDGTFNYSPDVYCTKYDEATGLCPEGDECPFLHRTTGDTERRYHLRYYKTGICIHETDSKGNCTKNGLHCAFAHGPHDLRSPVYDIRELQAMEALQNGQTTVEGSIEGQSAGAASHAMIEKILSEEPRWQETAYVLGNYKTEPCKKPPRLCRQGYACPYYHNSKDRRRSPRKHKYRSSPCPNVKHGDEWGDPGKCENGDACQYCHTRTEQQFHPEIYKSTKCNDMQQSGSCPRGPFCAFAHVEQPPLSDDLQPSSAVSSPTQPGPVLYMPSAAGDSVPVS
Method: RNA Bind-n-Seq
Molecule type: RNA
Matrix: in vitro
Tested at: not given
Setting: RNA with constant flanks, human and mouse sites, ends assumed
Reference: input RNA pool
Direction: higher = stronger binding
Endpoint: bound/input enrichment
Constant ends, left off below: GGGAGUUCUACAGUCCGACGAUC … CAACAGAGGAUUGAGCAUCA
Oligonucleotide = GAUAAAGACCCCAACAAGAAGAUGAAACGAAACUUAAGGAAAAUUCUGGAUAGUAAAGCAAUAGACCUUAUGAAUGCACUAAUGAGGCUAAAUCAGAUCAGGCCUGGGCUUCAGUAUAAG; value = 0.643 ratio
Oligonucleotide = UGAUUCAUACUGUUAAAUUGAGAGAGGAAACCUUGUGGUUAAAAAUUAUAUGGCUGCUGUUUUCUUUUUGCAGUCAGUGGUCAAAACUGAUCAUGUGCUUAAAUCGAUUUUUAUGCACAG; value = 0.229 ratio
Oligonucleotide = UUUCUUUUUAUUUUUUAAUUUUCUCCAGUCCCUGGGAGCAAGUUGCAGUCCUUUCCUCCCUGUCCCUCUGUGCUCAGUCGCCCUGUUUUGAGGUCUCAACAUCAUGGUUCUCAAUUAAUU; value = 4.64 ratio
Oligonucleotide = UCAAAUACACUAUGAAGCUAAAGAAUUACUUGGCACCAGAUGCUACAGCUGCAGAUAAACGACUCACAGUACUUUGCCUGCGAUGCGAGUCUUUGCUGUACCUGAGGCUGUUCAAACUGA; value = 0.122 ratio
Oligonucleotide = GUAGAUAAGGUCAUGGAUCAGAAAGAACAUAAAUUGAAUGGGAAAGUCAUUGAUCCUAAAAGGGCCAAAGCCAUGAAAACAAAAGAGCCUGUCAAAAAAAUUUUUGUUGGUGGCCUUUCU; value = 0.352 ratio
Oligonucleotide = UCCCCCAGGAGAGGGACCGCCUUCCCAGCUGUAAGCCUCCUGUCCCUCUGUCCCCAUGUCCUGGUGGGACCCCUGCUGGCAGCAGUGGCGGCAGCCCUGGUGAAGACCCCAGGAGAACAG; value = 0.122 ratio
Oligonucleotide = GGGGCUGAUUUUUAUUUCUUUGGGGGCUUUUUUUCUUGGCAAAUACUAAAAAUCUCGUCAAUGUAAUUUCUGUGGUUUCUAUUCAGCUUGGGUUUCAUGUUUUAAAAUAAAUUUUAAAAA; value = 0.868 ratio

Series 2
Target: CDC34 UBC core domain (UniProt P49427)
Method: yeast two-hybrid
Matrix: yeast
Setting: mostly zero background
Reference: not given
Direction: higher = stronger interaction
Endpoint: lacZ reporter activity
B1: MDM2 RING domain (UniProt Q00987); chain TQDKEESVESSLPLNAIEPCVICQGRPKNGCIVHGKTGHLMACFTCAKKLKKRNKPCPVCRQPIQMIVLTYFP
B2: RMND5B RING domain (UniProt Q96G75); chain MKCWYHSVFACPILRQQTSDSNPPIKLICGHVISRDALNKLINGGKLKCPYCPMEQNPADGK
B3: NHLRC1 RING domain (UniProt Q6VVB1); chain MREAEISLLECKVCFEKFGHRQQRRPRNLSCGHVVCLACVAALAHPRTLALECPFCRRACRGCDTSD
Construct (chain): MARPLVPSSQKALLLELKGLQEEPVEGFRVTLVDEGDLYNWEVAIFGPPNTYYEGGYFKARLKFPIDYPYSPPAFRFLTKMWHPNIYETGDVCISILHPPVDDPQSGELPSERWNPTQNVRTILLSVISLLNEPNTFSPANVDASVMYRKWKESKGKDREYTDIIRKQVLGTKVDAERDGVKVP
Molecule = EIKDYKARLTCPCCNMRKKDAVLTKCFHVFCFECVKTRYDTRQRKCPKCNAAFGANDFHR (RNF20 RING domain (UniProt Q5VTR2)); value = 0
Molecule = B1 (MDM2 RING domain); value = 0
Molecule = EDVLSKDAGECAICLEELQQGDTIARLPCLCIYHKGCIDEWFEVNRSCPEHPSD (ZNRF2 RING domain (UniProt Q8NHG8)); value = 0
Molecule = B2 (RMND5B RING domain); value = 0
Molecule = B3 (NHLRC1 RING domain); value = 0
Molecule = MEEMEEELKCPVCGSFYREPIILPCSHNLCQACARNILVQTPESESPQSHRAAGSGVSDY (TRIM9 RING domain (UniProt Q9C026)); value = 0
Molecule = PLRRLQEEKLCKICMDRHIAVVFIPCGHLVTCKQCAEAVDRCPMCSAVIDFKQRVF (BIRC8 RING domain (UniProt Q96P09)); value = 0

Series 3
Target: Fragile X messenger ribonucleoprotein 1, C-terminal low-complexity region (Fmr1, Mus musculus, UniProt P35922)
Method: RNA Bind-n-Seq
Molecule type: RNA
Matrix: in vitro
Tested at: 200 nM
Setting: whole 134-nt RNA, ends assumed
Together with: 150 mM KCl
Reference: input library
Direction: higher = stronger binding
Endpoint: log2 enrichment
Constant ends, left off below: GGGAGUUCUACAGUCCGACGAUC … UGGAAUUCUCGGGUGUCAAGG
Oligonucleotide = GUCCUGUGCUACACAUCGUAUGUACCGAAUCGGGGAAAAGGGAAAAGGGGAAAAGGGGAAAGUAUUAUGUUACGCCGUUCGGAUCUGCAC; value = 0.346
Oligonucleotide = CAAGUCCUGUGCUACACAUCGUAUGUACCGAAUCGGAAAAAAAGGAGGAAAAAGGAAAGUAUUAUGUUACGCCGUUCGGAUCUGCACUUC; value = -0.579
Oligonucleotide = ACCUUGCAGGUGGGCAUCUUUGGGAAGUGGGGCAAGGGGGGGAUAGGGAGGGGGGUAACACUUUGGGAACAGGUGGUCCCAGGUCGUUUC; value = 0.794
Oligonucleotide = UGCUCUCCGUGCCACAUGCGCCCGCAGGUUACGCCAAGGAGGCCCUGAAUCUGGCGCAGAUGCAGGAGCAGACGCUGCAGUUGGAGCAAC; value = -2.42
Oligonucleotide = UGGGAGGUGGAUUUUGUUUAUUUUUUUAGCUCAUUUCCAGGGGUGGGAAUUUUUUUUUAAUAUGUGUCAUGAAUAAAGUUGUUUUUGUAA; value = 0.398
Oligonucleotide = CCUGUGCUACACAUCGUAUGUACCGAAUCGGCCCCCCCGGCCCCCCCGGGCCCCCCCGGGGAAAGUAUUAUGUUACGCCGUUCGGAUCUG; value = -0.519
Oligonucleotide = UGGCCCUGGUGGCAUGCGGGGAGGAAGAGGUGGCCUCAUGGGUCGUGGUGGUCCCGGUGGAAUGUUCAGAGGUGGCCGUGGUGGAGACAG; value = -1.61e-05
Oligonucleotide = UUCCUCAAGUCCUGUGCUACACAUCGUAUGUACCGAAUCGGUGGUGGUGGGAAAGUAUUAUGUUACGCCGUUCGGAUCUGCACUUCCAGC; value = -0.136
Oligonucleotide = UGCCCUCCGUGGAGUCUUUGUUUCGAAGUCCGAUAAAGGAAUCUCUAUUCCGGUCUUCUUCUAAAGAGUCUUUGGUACGAACAUCUUCCA; value = -1
Oligonucleotide = AGUCCUGUGCUACACAUCGUAUGUACCGAAUCAAAUUUAAAUUUAAACCCCCCCAAAAAAGUAUUAUGUUACGCCGUUCGGAUCUGCACU; value = 0.249

Series 4
Target: Myc proto-oncogene protein, bHLH-zipper, MAX partner unstated (MYC, Homo sapiens, UniProt P01106, residues 368-449)
Sequence of UniProt P01106 (368-449, looked up): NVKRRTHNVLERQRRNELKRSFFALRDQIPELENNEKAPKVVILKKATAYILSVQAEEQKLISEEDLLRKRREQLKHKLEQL
Method: protein-binding microarray
Molecule type: double-stranded DNA, one strand shown
Matrix: in vitro
Tested at: not given
Setting: k-mer, scored over probes, only values ≥0.25
Direction: higher = stronger binding
Endpoint: E-score
Oligonucleotide = ACGCCTCG; value = 0.301
Oligonucleotide = CGTGGGAG; value = 0.285
Oligonucleotide = CCTGCACG; value = 0.341
Oligonucleotide = ACTCCACG; value = 0.333
Oligonucleotide = AGCACGAT; value = 0.294
Oligonucleotide = AGATGCAC; value = 0.256
Oligonucleotide = GCCCCTCC; value = 0.379
Oligonucleotide = ACATGTTA; value = 0.316
Oligonucleotide = CCCACGCA; value = 0.306
Oligonucleotide = CATGACCC; value = 0.304
Oligonucleotide = CACCCACA; value = 0.28
Oligonucleotide = GCATACAC; value = 0.274
Oligonucleotide = ACACCACG; value = 0.391
Oligonucleotide = CGTGGTGA; value = 0.372
Oligonucleotide = CATGGGAG; value = 0.275

Series 5
Target: Histone acetyltransferase KAT6A, both winged helices, GST fusion (KAT6A, Homo sapiens, UniProt Q92794, residues 1-181)
Method: protein binding microarray
Molecule type: double-stranded DNA, one strand shown
Matrix: in vitro
Tested at: not given
Setting: 8-mer, flanks averaged, mean of 2 arrays, mostly near background
Reference: not given
Direction: higher = stronger binding
Endpoint: E-score
Target sequence (chain): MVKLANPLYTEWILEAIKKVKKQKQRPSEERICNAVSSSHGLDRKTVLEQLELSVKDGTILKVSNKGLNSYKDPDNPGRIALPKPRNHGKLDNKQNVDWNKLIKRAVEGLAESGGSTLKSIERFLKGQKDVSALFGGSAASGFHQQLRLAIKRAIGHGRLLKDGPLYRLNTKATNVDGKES
Oligonucleotide = AGTTGGTG; value = -0.133
Oligonucleotide = ACCCGGCA; value = 0.223
Oligonucleotide = ATTCGTGC; value = -0.0699
Oligonucleotide = AGCGTCTA; value = -0.0554
Oligonucleotide = GCGTGCAA; value = 0.132
Oligonucleotide = AGCAGGTC; value = -0.108
Oligonucleotide = ACAAGAAC; value = 0.0361
Oligonucleotide = TGCGTAAA; value = 0.169
Oligonucleotide = AATTATCA; value = -0.00488
Oligonucleotide = GCAACGAC; value = 0.0584
Oligonucleotide = CAACACGG; value = 0.136

Series 6
Target: TAR DNA-binding protein 43, full length, His tag (TARDBP, Homo sapiens, UniProt Q13148, residues 1-414)
Method: RNA Bind-n-Seq
Molecule type: RNA
Matrix: in vitro
Tested at: 20 nM
Setting: 6-mer, flanks averaged, single round
Together with: 150 mM KCl
Reference: input library
Direction: higher = stronger binding
Endpoint: 6-mer enrichment (R)
Oligonucleotide = AACGCA; value = 0.665
Oligonucleotide = CAUUGA; value = 0.615
Oligonucleotide = GGUCCA; value = 0.96
Oligonucleotide = UGCGGC; value = 1.45
Oligonucleotide = UUUAAU; value = 0.638
Oligonucleotide = ACCUGG; value = 0.937
Oligonucleotide = GUCGGG; value = 3.34
Oligonucleotide = GACUCC; value = 0.687
Oligonucleotide = UUACGA; value = 0.595
Oligonucleotide = ACGGUG; value = 1.43
Oligonucleotide = GGGGAA; value = 4.29
Oligonucleotide = GUUCGA; value = 0.763
Oligonucleotide = GUUUUU; value = 0.776
Oligonucleotide = CUGAUA; value = 0.608

Series 7
Target: Sal-like protein 4, full length isoform A (SALL4, Homo sapiens, UniProt Q9UJQ4, residues 1-1053)
Sequence of UniProt Q9UJQ4 (whole entry, looked up): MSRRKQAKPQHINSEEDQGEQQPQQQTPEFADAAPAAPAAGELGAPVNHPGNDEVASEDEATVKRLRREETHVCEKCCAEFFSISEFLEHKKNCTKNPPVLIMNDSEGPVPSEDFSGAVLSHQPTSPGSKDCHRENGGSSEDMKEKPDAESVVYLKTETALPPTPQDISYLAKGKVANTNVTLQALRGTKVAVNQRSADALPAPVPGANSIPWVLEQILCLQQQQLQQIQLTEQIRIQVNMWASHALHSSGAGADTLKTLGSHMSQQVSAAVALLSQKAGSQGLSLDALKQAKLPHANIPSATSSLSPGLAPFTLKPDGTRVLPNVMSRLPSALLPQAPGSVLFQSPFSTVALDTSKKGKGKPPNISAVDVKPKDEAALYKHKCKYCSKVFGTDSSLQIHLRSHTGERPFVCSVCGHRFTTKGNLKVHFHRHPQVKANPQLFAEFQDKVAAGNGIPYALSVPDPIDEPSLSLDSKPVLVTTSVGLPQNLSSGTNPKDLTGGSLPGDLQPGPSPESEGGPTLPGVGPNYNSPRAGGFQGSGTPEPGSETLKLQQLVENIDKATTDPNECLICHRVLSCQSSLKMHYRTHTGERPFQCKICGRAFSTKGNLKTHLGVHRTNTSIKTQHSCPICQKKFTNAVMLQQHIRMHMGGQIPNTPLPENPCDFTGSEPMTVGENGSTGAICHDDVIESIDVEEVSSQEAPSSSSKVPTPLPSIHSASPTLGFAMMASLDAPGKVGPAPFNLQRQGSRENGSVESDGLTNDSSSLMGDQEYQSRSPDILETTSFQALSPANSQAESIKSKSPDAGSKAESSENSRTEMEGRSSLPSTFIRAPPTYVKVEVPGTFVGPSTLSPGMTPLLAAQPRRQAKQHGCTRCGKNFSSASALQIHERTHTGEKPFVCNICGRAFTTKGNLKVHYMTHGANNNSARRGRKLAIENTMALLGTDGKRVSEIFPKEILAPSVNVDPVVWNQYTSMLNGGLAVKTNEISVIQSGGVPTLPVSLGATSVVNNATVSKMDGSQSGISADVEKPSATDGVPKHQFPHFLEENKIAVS
Method: universal PBM
Molecule type: double-stranded DNA, one strand shown
Matrix: in vitro
Tested at: 600 nM
Setting: 8-mer, flanks averaged, mean of replicates
Direction: higher = stronger binding
Endpoint: E-score
Oligonucleotide = ATGGACAG; value = -0.00581
Oligonucleotide = TCGGACGA; value = -0.105
Oligonucleotide = GCGCCGGA; value = -0.374
Oligonucleotide = AGAAACGG; value = -0.101
Oligonucleotide = GAATAGCC; value = -0.22
Oligonucleotide = CTAGCTCA; value = -0.125
Oligonucleotide = GAAAGCCC; value = -0.173
Oligonucleotide = CCTTCTTC; value = -0.0708
Oligonucleotide = CGCCATGA; value = -0.197
Oligonucleotide = ATCTTCGC; value = 0.0437
Oligonucleotide = GCACTAGC; value = -0.19
Oligonucleotide = GCAATATA; value = 0.347
Oligonucleotide = TGTTACAA; value = 0.205
Oligonucleotide = CGATGGGC; value = -0.229
Oligonucleotide = TGTCGTAA; value = 0.0841
Oligonucleotide = CATCTTGA; value = 0.00395
Oligonucleotide = ACCCTTCA; value = 0.012
Oligonucleotide = AGGGGATG; value = -0.14
Oligonucleotide = CTAGACAA; value = 0.0439
Oligonucleotide = ACCCGTGC; value = -0.319
Oligonucleotide = AAATTTAA; value = 0.251
Oligonucleotide = AAGACCTT; value = 0.0349
Oligonucleotide = CGCGCCCG; value = -0.369
Oligonucleotide = AAAGTATC; value = 0.182
Oligonucleotide = CGGTACAG; value = -0.138

Series 8
Target: CCND2, cyclin fold, Cln2 fusion (human)
Method: yeast growth competition, sequencing
Matrix: yeast
Setting: strong parent motif
Reference: not given
Direction: higher = stronger binding
Endpoint: normalised enrichment score
Starting sequence: PKN2 docking peptide (human); VSAVRKLDFSDTM
Variant = D8E; value = 2.1
Variant = S2W; value = 1.67
Variant = L7F; value = 0.367
Variant = T12L; value = 2.83
Variant = L7V; value = 0.16
Variant = L7H; value = 0.42
Variant = R5L; value = 0.695
Variant = D11N; value = 3.12
Variant = F9S; value = 0.229
Variant = K6C; value = 3.22
Variant = F9P; value = 0.182
Variant = S2C; value = 2.66
Variant = D11V; value = 3.2
Variant = K6G; value = 0.407
Variant = K6T; value = 1.25

Excerpt of the above (series 6):
Oligonucleotide = CUGAUA; value = 0.608
Oligonucleotide = ACCUGG; value = 0.937
Oligonucleotide = UUACGA; value = 0.595
Oligonucleotide = GUUCGA; value = 0.763
Oligonucleotide = GUUUUU; value = 0.776
Oligonucleotide = GUCGGG; value = 3.34
Oligonucleotide = GGUCCA; value = 0.96
Oligonucleotide = CAUUGA; value = 0.615
Oligonucleotide = AACGCA; value = 0.665
Oligonucleotide = GGGGAA; value = 4.29
Oligonucleotide = ACGGUG; value = 1.43
Oligonucleotide = UGCGGC; value = 1.45
